# Measured values pooled from the literature.
# Lines come from different studies, so protocols differ. Values joined by “and” are separate records of one study, mostly repeats; a detail may differ. ± gives the spread as reported.
Compound,cell line,assay,test system,conditions,how to read,measurement,value
Cc1cc(NC2CCN(C)CC2)ccc1-c1cc2c(N3CCC[C@H](C(=O)N[C@H](C)c4ccccc4)C3)ncnc2[nH]1,NCI-H2228,"cell growth or viability, MTT",,"0.008 µg/mL, 72 h",,inhibition,20.9%
CCNc1cc2c(cc1C)C1(c3cc(C)c(NCC)cc3O2)c2ccccc2C(=O)N1N=Cc1c[c-]c(-c2ccccn2)cc1.Cc1c(C)c(-c2ccc(-c3ccccc3)cc2)[c-](C)c1C.[Cl-].[Ir+3],A549,PI flow cytometry,,"2 x IC50, 24 h",,G0/G1 phase cells,51.53 ± 0.28%
O=C(NN1C(=O)c2ccccc2NC1c1ccc([N+](=O)[O-])o1)c1ccc([N+](=O)[O-])cc1 (centres unmarked),LDR,"silenced CMV-GFP reporter derepression, qHTS",,,,Emax,113%
C#CC(C)(C)C(=O)SCCOP1(=O)OCC2OC(n3cnc4c(N)ncnc43)CC2OP(=O)(OCCSC(=O)C(C)(C)C#C)OCC2OC(n3cnc4c(N)ncnc43)CC2O1 (centres unmarked),THP1-Lucia,IRF reporter gene,,"concentration not given, 4 h",,STING activation,inactive
Cn1ncc(-c2ccc3c(=O)[nH]nc(CN)c3c2)c1-c1c(F)c(Cl)cc(OC2CC2)c1C#N,CoC1,"cell viability, CellTiter-Glo",,120 h,,IC50,840 nM
Cc1cc(N)ccc1-c1cc2c(N3CCC[C@H](C(=O)NCc4ccc(OC(F)(F)F)cc4)C3)ncnc2[nH]1,NCI-H2228,"cell growth or viability, MTT",,"0.04 µg/mL, 72 h",,inhibition,56.4%
[BH3-][P+]1(c2ccccc2)CCCCC1,SW480,Annexin V-FITC/PI flow cytometry,,"IC50, 72 h",,late apoptotic cells,5.35%
COc1ccc(NC(=O)c2ccc3[nH]c(-c4ccc(N(C)C)cc4)nc3c2)cn1,HCT-116,Caspase-Glo,,"8 µM, 16 h, unit not given",baseline: DMSO,caspase-3/7 activity,2.5 and 2.62 and 2.31
Cc1ncsc1-c1ccc(C(C)NC(=O)C2CC(O)CN2C(=O)C(NC(=O)CCCCCCCCCCN2CCCC(Nc3ncc(Cl)c(Nc4ccccc4S(=O)(=O)C(C)C)n3)C2)C(C)(C)C)cc1 (centres unmarked),22Rv1,"RNA-seq, measured: ZNF214 mRNA",,concentration not given,baseline: DMSO,log2 fold change,-3.7
CO[C@@H]1[C@@H](OC(N)=O)[C@@H](O)[C@H](Oc2ccc3c(O)c(NC(=O)c4ccc(O)c(CC=C(C)C)c4)c(=O)oc3c2C)OC1(C)C,HCT-116 BRCA2 wild-type,,,"100 µM, replicate B",baseline: untreated,colony survival,77.3%
COc1ccc(NC(=O)CSc2nc3c(oc4ccccc43)c(=O)n2Cc2ccco2)cc1Cl,LDR,"silenced CMV-GFP reporter derepression, qHTS",,,,efficacy,72%
Cc1cc(NC2CCN(C)CC2)ccc1-c1cc2c(N3CCC[C@H](C(=O)N4CCCC4)C3)ncnc2[nH]1,NCI-H2228,"cell growth or viability, MTT",,"1 µg/mL, 72 h",,inhibition,18.3%
CCCC[C@H](NC(=O)[C@H](CC(C)C)NC(=O)[C@H](CO)NC(=O)[C@H](CO)NC(=O)[C@H](C)NC(=O)[C@H](CO)NC(=O)[C@H](C)N)C(=O)N[C@@H](CC(=O)O)C(=O)N[C@@H](CCCCN)C(=O)N[C@@H](CCC(=O)O)C(=O)N[C@@H](C)C(=O)N[C@H](C(=O)N[C@@H](Cc1ccc(O)cc1)C(=O)N[C@@H](Cc1ccccc1)C(=O)N[C@@H](C)C(=O)N[C@@H](Cc1c[nH]cn1)C(=O)N[C@@H](CC(C)C)C(=O)N[C@@H](CC(=O)O)C(=O)N[C@H](C(=O)N[C@H](C(=O)N[C@@H](Cc1c[nH]c2ccccc12)C(=O)O)[C@@H](C)CC)[C@@H](C)CC)C(C)C,COS-7 ETBR-GFP,"calcium flux, agonist",,ETBR/ETAR ratio 1:0,,Emax,103 ± 6%
CCOc1cncc(-c2ccc(NC(=O)C3(c4ccnc(NS(=O)(=O)C5CC5)n4)CCOCC3)nc2)n1,SK-LMS-1,"cell proliferation, CellTiter-Glo",,"72 h, Sarcoma cancer",,IC50,2520 nM
O=C(C[Se]C(=O)c1cc2ccccc2[nH]1)Nc1cccc(C(F)(F)F)c1,NCI60 NSCLC subpanel,NCI60 five-dose screen,,,,GI50,1330 nM
Cc1cc(NC2CCN(C)CC2)ccc1-c1cc2c(N3CCC[C@H](C(=O)NCc4ccc(Cl)nc4)C3)ncnc2[nH]1,NCI-H2228,"cell growth or viability, MTT",,"0.04 µg/mL, 72 h",,inhibition,11.6%
O=C(N/N=C/c1ccccn1)c1cc(-c2ccc(Cl)cc2)nc2ccccc12,LDR,"silenced CMV-GFP reporter derepression, qHTS",,,,EC50,5010 nM
COc1ccccc1-c1ccncc1C(=O)Nc1ccc(OCc2ccc(Cl)cc2)nn1,DLD-1 BRCA2-/-,,,"20 µM, mean of 3 replicates",baseline: untreated,colony survival,98.7%
CCN(C(=O)c1cc(F)ccc1Oc1nncnc1N1CCC2(C1)CN([C@H](CCCN(C)CCOC)C(C)C)C2)C(C)C,SK-LMS-1,,uterus,168 h,,GI50,> 10000 nM
CNS(=O)(=O)Nc1nccc(Cc2c(C)c3ccc(Oc4ncccc4F)cc3oc2=O)c1F,CHL-1,cell viability,,7 days,,IC50,681 nM
O=C(NCc1ccc(OC(F)(F)F)cc1)[C@H]1CCCN(c2ncnc3[nH]c(-c4ccc(C(F)(F)F)cc4)cc23)C1,NCI-H2228,"cell growth or viability, MTT",,"0.04 µg/mL, 72 h",,inhibition,11.3%
O=[N+]([O-])C(=C\Nc1ccccc1O)/C=N/c1ccccc1O,LDR,"silenced CMV-GFP reporter derepression, qHTS",,,,Emax,21%
CCN(CC)CC(=O)Nc1cccc(-n2cc(-c3ccc4ccc(-c5cn(-c6cccc(NC(=O)CN(CC)CC)c6)nn5)cc4c3)nn2)c1,RCC4,"PCR angiogenesis array, measured: THBS2",,"5 x IC50, 2 h, normoxia",baseline: untreated,fold regulation,-1.05 fold
COc1c(C)c(O)c(C(=O)C=Cc2ccccc2)c(OC)c1C,SH-SY5Y,SRB,,,baseline: normal over SH-SY5Y IC50,selectivity index,3.38
COC(=O)c1cc(NC2=NC(=O)C(=Cc3ccc(C)cc3)S2)ccc1OC(C)=O,MCF7,"GC-MS, measured: Myristic acid",,1 µM,baseline: DMSO,metabolite level,-0.59 fold change
Cc1sc2c(c1C)C(c1ccc(Cl)cc1)=N[C@@H](CC(=O)NCC(=O)N1CCC3(CCC(C(=O)N4CCN(C(=O)c5cc(Cc6n[nH]c(=O)c7ccccc67)ccc5F)CC4)CC3)CC1)c1nnc(C)n1-2,NCI-H82,,,"10 nM, 24 h",,cells in S phase,48%
O=C(C[Se]C(=O)c1cc2ccccc2s1)Nc1cccc(C(F)(F)F)c1,NCI60 renal subpanel,"cell growth, inhibitor",,five-dose,,GI50,1630 nM
CC(C)c1ccc(N(C)c2ccc3c(c2)OCC[C@H]3CNc2cnccc2C(=O)O)cc1,NCI-H1395,"cell growth or viability, ATP luminescence",,7 days,,IC50,≥ 10000 nM
CN1CCCNC(=O)c2cccc(c2)C(=O)NCCCN(C)CCCNc2cccc3c2C(=O)c2cccc(c2C3=O)NCCC1,SAS,"RNA-Seq, measured: RFWD3 mRNA",,"1 µM, 6 h",baseline: untreated cells,log2 fold change,0.493
O=C(C[Se]C(=O)c1cc2ccccc2o1)Nc1cccc(C(F)(F)F)c1,NCI60 renal subpanel,cell growth,,"10 µM, 48 h, one-dose",,mean growth percent,-84.1%
C=CS(=O)(=O)c1ccc(OC)c(-c2c[nH]c3ncc(-c4cncc(C(=O)N(C)C)c4)cc23)c1,Ba/F3 BCR-ABL T315I,cell proliferation,,72 h,,GI50,> 1000 nM
CC1=C/C(=N\N=C(/S)Nc2cccnc2)CC(C)(C)C1,LDR,"silenced CMV-GFP reporter derepression, qHTS",,,,efficacy,211%
CC(C)Cc1ccc(C(C)C(=O)[Se]CC(=O)Nc2cccc(C(F)(F)F)c2)cc1 (centres unmarked),NCI60 renal subpanel,"total growth inhibition, inhibitor",,five-dose,,mean TGI,3800 nM
O=C(NCc1ccc(OC(F)(F)F)cc1)[C@H]1CCCN(c2ncnc3[nH]c(-c4ccccc4)cc23)C1,NCI-H2228,"cell growth or viability, MTT",,"0.2 µg/mL, 72 h",,inhibition,43.8%
O=C(C[Se]C(=O)c1cccnc1Nc1cccc(C(F)(F)F)c1)Nc1cccc(C(F)(F)F)c1,NCI60 renal subpanel,"total growth inhibition, inhibitor",,five-dose,,mean TGI,3700 nM
O=C(NCc1ccc(OC(F)(F)F)cc1)[C@H]1CCCN(c2ncnc3[nH]c(-c4cccs4)cc23)C1,NCI-H2228,"cell growth or viability, MTT",,"0.2 µg/mL, 72 h",,inhibition,66%
CSC(=S)N/N=C(\C)c1ccc(Nc2nnc(-c3ccc(Cl)cc3)c3ccccc23)cc1,MCF7,"cell growth or viability, MTT",,"0.156 µM, 24 h",,viability,50.8%
Cn1ncc2cc(-c3cncc(Cl)c3N3CCC4(CCNC4=O)CC3)ccc21,LS174T,"gene expression, microarray, measured: TNFRSF12A (FN14) mRNA",,"concentration not given, 4 h",baseline: untreated cells,log2 fold change,-1.27
COc1ccccc1-c1ccncc1C(=O)Nc1nnc(OCc2ccc(Cl)cc2)s1,MDA-MB-231,,,12 µM,,colony count,20 and 23
Cc1cc(Cl)cc(-c2ccnc3cc(CN4C(=O)C5C(C4=O)C5(C)C)sc23)c1C[C@@H]1CNCCO1 (some centres unmarked),CHP-212 resistant,annexin V/PI flow cytometry,,"0.1 µM, 48 h",,apoptotic cells,11.7%
COC(=O)c1cc(NC2=NC(=O)C(=Cc3ccc(N(C)C)cc3)S2)ccc1OC(C)=O,MCF7,"GC-MS, measured: L-Aspartic acid",,1 µM,baseline: DMSO,metabolite level,-0.05 fold change
COCCCCCNc1nc(NCCCCCCN(C)C)c2cc(NC(=O)/C=C/CN(C)C)ccc2n1,MCF7,CellTiter-Glo,,"0.09766 µM, 48 h, unit not given",baseline: DMSO-treated cells,viability,1.06 and 1.03
COc1cc(-c2cc3c(N4CCC[C@H](C(=O)NCc5ccc(OC(F)(F)F)cc5)C4)ncnc3[nH]2)cc(OC)c1OC,NCI-H2228,"cell growth or viability, MTT",,"0.2 µg/mL, 72 h",,inhibition,57.6%
[Cl-].[Cl-].[Ru+2].c1ccc(-c2ccccn2)nc1.c1ccc(-c2ccccn2)nc1.c1ccc2cc3nc4c5cccnc5c5ncccc5c4nc3cc2c1,SK-MEL-28,resazurin,,"normoxia, together with: green light 523 nm",baseline: dark EC50 over light EC50,phototherapeutic index,690

# For quick reference, copied from above:
Compound,cell line,assay,test system,conditions,how to read,measurement,value
CCN(C(=O)c1cc(F)ccc1Oc1nncnc1N1CCC2(C1)CN([C@H](CCCN(C)CCOC)C(C)C)C2)C(C)C,SK-LMS-1,,uterus,168 h,,GI50,> 10000 nM
C#CC(C)(C)C(=O)SCCOP1(=O)OCC2OC(n3cnc4c(N)ncnc43)CC2OP(=O)(OCCSC(=O)C(C)(C)C#C)OCC2OC(n3cnc4c(N)ncnc43)CC2O1 (centres unmarked),THP1-Lucia,IRF reporter gene,,"concentration not given, 4 h",,STING activation,inactive
Cc1cc(Cl)cc(-c2ccnc3cc(CN4C(=O)C5C(C4=O)C5(C)C)sc23)c1C[C@@H]1CNCCO1 (some centres unmarked),CHP-212 resistant,annexin V/PI flow cytometry,,"0.1 µM, 48 h",,apoptotic cells,11.7%
COC(=O)c1cc(NC2=NC(=O)C(=Cc3ccc(N(C)C)cc3)S2)ccc1OC(C)=O,MCF7,"GC-MS, measured: L-Aspartic acid",,1 µM,baseline: DMSO,metabolite level,-0.05 fold change
